Experimental data from different studies.
A part holds a random share of what one study measured. Changes are numbered by the printed parent chain.

Block 1
Target: Fragile X messenger ribonucleoprotein 1, C-terminal low-complexity region (Fmr1, Mus musculus, UniProt P35922)
Method: RNA Bind-n-Seq
Form: RNA
Matrix: in vitro
Tested at: 200 nM
Setting: whole 134-nt RNA, ends assumed
Together with: 150 mM KCl
Baseline: input library
Reading: higher = stronger binding
Constant ends, left off below: GGGAGUUCUACAGUCCGACGAUC … UGGAAUUCUCGGGUGUCAAGG
| Strand | log2 enrichment |
| --- | --- |
| GCAGGAAGUAAAAACAAAUGGAAAUGCUUCGGAUAGUGGCAGGGGUGGGGGUUGCUAAGGAAAGGGUGGGAUGGGAGUGGGUAAAGAGUA | 0.585 |
| CCUGUGCUACACAUCGUAUGUACCGAAUCGGGGAGGGGAAAAAAAGGGGUUUUUUUGGGGAAAGUAUUAUGUUACGCCGUUCGGAUCUGC | 0.253 |
| CUCAAGUCCUGUGCUACACAUCGUAUGUACCGAAUCGGUUUUUGGAGGUUUGGAAAGUAUUAUGUUACGCCGUUCGGAUCUGCACUUCCA | -0.406 |
| GUCCUGUGCUACACAUCGUAUGUACCGAAUCGGUUUUUUGGUUUUUUGGUUUUUUGGGAAAGUAUUAUGUUACGCCGUUCGGAUCUGCAC | -0.828 |
| UCAAGUCCUGUGCUACACAUCGUAUGUACCGAAUCGGGGAAGGGGAAGGAAGGGGAAAGUAUUAUGUUACGCCGUUCGGAUCUGCACUUC | 0.549 |
| AGUCCUGUGCUACACAUCGUAUGUACCGAAUCGGGGAAAGGGGUGGGGUUUUUGGGGAAAGUAUUAUGUUACGCCGUUCGGAUCUGCACU | 1.02 |
| UGGGAGGUGGAUUUUGUUUAUUUUUUUAGCUCAUUUCUAGGGGUGGGAAUUUUUUUUUAAUAUGUGUCAUGAAUAAAGUUGUUUUUGAAA | 0.107 |
| CCUGUGCUACACAUCGUAUGUACCGAAUCGGGGAGGGGAAAAAAAGGGGAAAAAAAGGGGAAAGUAUUAUGUUACGCCGUUCGGAUCUGC | -0.00572 |
| ACCAUGCAGGUGGGCAUCUUUGGGAUGUGGGGCAAGGGGGGGAUAGGGAGGGGGGUAACACUUUGGGAACAGGUGGUCCCAGGUCGUUUC | 0.767 |
| CAUGUUGAAAGACAUGCUUUUAUUUUUUUGUAAAACAAUAUAGGAGCUGUGUCUACUAUUAAAAGUGAAACAUUUUGGCAUGUUUGUUAA | -1.68 |

Block 2
Target: Sal-like protein 4, full length isoform A (SALL4, Homo sapiens, UniProt Q9UJQ4, residues 1-1053)
UniProt Q9UJQ4, sequence (whole entry, looked up): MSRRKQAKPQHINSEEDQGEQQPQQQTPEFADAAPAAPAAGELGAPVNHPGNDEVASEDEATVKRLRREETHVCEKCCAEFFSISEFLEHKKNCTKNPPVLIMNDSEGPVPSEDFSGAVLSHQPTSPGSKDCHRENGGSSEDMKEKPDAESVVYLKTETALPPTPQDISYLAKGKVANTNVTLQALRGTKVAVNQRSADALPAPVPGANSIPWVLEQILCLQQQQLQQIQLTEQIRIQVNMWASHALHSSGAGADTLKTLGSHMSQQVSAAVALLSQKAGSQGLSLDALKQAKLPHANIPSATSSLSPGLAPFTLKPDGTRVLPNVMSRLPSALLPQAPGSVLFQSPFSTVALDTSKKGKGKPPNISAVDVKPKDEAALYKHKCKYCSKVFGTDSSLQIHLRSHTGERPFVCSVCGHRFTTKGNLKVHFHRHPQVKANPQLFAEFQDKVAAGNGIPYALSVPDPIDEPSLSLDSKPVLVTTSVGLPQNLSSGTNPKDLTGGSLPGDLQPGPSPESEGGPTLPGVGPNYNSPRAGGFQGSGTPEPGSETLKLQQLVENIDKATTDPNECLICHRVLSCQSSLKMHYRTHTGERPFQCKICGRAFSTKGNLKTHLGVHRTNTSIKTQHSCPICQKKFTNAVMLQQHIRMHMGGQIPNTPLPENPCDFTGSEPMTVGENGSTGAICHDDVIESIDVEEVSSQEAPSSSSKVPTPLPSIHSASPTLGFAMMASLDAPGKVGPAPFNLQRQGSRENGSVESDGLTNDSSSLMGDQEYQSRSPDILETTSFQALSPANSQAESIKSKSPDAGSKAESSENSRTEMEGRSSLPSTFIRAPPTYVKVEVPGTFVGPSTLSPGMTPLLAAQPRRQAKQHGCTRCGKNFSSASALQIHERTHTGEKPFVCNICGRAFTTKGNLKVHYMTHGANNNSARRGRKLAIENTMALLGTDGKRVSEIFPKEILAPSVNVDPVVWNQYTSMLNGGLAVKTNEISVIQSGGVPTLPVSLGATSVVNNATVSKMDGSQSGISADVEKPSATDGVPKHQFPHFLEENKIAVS
Method: universal PBM
Form: double-stranded DNA, one strand shown
Matrix: in vitro
Tested at: 600 nM
Setting: 8-mer, flanks averaged, mean of replicates
Reading: higher = stronger binding
| Strand | E-score |
| --- | --- |
| ACTTGCCG | -0.17 |
| GCACCAGC | -0.322 |
| ACGCACTA | -0.105 |
| GCCATGAC | -0.136 |
| GTTCGCGA | -0.0358 |
| CGGTTTGA | -0.108 |
| CCAATCCG | -0.119 |
| CCCTCCCG | -0.212 |
| CAATGCAC | 0.109 |
| CTTGGCTA | -0.0572 |
| CATATTCA | 0.318 |
| ACACCGAC | -0.213 |
| GGTGTCTA | 0.0501 |

Block 3
Target: ABI1, truncated, D143A, DHFR fusion (Arabidopsis thaliana, UniProt P49597)
Method: DHFR PCA, dose-response
Matrix: yeast
Setting: Hill fit, mean, not affinity
Together with: (+)-ABA, dose series
Reading: lower = more sensitive
Starting sequence: PYL1, truncated, DHFR fusion (Arabidopsis thaliana, UniProt Q8VZS8); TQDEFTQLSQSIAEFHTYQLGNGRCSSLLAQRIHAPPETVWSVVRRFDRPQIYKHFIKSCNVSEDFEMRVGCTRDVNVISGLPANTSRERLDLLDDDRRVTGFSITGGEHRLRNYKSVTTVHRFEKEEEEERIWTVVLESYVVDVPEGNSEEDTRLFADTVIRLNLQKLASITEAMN
| Change | ABA EC50 [µM] |
| --- | --- |
| L20N | 4.22 |
| R88I | 1.53 |
| N177F | 4.32 |
| T106S | 34.3 |
| D3Q | 7.4 |
| Q51V | 95.3 |
| S150P | 515 |
| P36I | 44.7 |
| H55T | 0.44 |
| L82A | 119 |
| I105V | 3.28 |
| N77M | 3.12 |
| E64S | 2.26 |
| H34Q | 4.01 |
| F56Y | 16 |
| L164E | 38.4 |

Block 4
Target: Centromere-binding protein 1, full length, N-terminal tag (CBF1, Saccharomyces cerevisiae, UniProt P17106, residues 1-351)
UniProt P17106, sequence (whole entry, looked up): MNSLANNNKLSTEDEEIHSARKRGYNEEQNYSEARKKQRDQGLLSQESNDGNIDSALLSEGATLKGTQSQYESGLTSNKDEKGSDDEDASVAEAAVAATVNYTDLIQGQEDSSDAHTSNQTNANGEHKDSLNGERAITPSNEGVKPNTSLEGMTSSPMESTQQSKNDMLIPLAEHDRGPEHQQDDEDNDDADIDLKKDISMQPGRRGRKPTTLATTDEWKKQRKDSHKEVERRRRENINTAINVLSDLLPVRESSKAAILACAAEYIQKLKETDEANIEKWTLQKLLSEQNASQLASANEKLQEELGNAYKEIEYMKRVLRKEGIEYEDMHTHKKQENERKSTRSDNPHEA
Method: protein-binding microarray
Form: double-stranded DNA, one strand shown
Matrix: in vitro
Tested at: 0.8 µM
Setting: whole 60-bp probe, no competitor
Reading: higher = stronger binding
Constant ends, left off below: … GTCTTGATTCGCTTGACGCTGCTG
| Strand | fluorescence intensity [a.u.] |
| --- | --- |
| CCTAACTACTATAGAGGCATGACATAGCTTCGTACA | 559 |
| GAATAGGAACGACGTGGTGTAGTGAATTACTTTTAG | 511 |
| CCTAACTACTATAGTACTCAGGTATAGCTTCGTACA | 494 |
| GAAGGAATCTGCGTTACTCACATGTGCAGATATTAG | 1550 |
| CTACCAATTCCACGGCACATGTAGATCTGCGAGTTC | 843 |
| CTATCTTCAACAAGAAACGTGACGGAACTCATATTC | 1460 |
| GAATTCTTCCAGCCTCATGACCTCAATAAACTTTAG | 889 |
| CTATGTTCTTGTAGCTACACCACGATTGAGTGTTTC | 511 |
| CTAGTGATACTCAGTCACCAGACACTTACAGTGTTC | 628 |
| GAAAAGTGGCAGTGTCACCTAAAATATTAGTACTAG | 498 |

Block 5
Target: Histone acetyltransferase KAT6A, winged helix 1, GST fusion (KAT6A, Homo sapiens, UniProt Q92794, residues 1-85)
Method: protein binding microarray
Form: double-stranded DNA, one strand shown
Matrix: in vitro
Tested at: not given
Setting: 8-mer, flanks averaged, mean of 2 arrays, mostly near background
Baseline: not given
Reading: higher = stronger binding
Construct (chain): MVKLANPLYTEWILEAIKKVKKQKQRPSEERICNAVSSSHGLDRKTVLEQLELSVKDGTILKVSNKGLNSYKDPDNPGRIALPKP
| Strand | E-score |
| --- | --- |
| CCACCCTA | -0.265 |
| ATGAATGG | -0.148 |
| CCAGTTTC | -0.194 |
| ACCTGGCT | -0.253 |
| TTTCCAAA | -0.263 |
| ATCTTCTC | -0.144 |
| AGATGACC | 0.0212 |
| AAGGGCTC | -0.0817 |
| GCAGGAAC | -0.144 |
| AGCTAGCA | -0.104 |
| CTCCCTCC | -0.173 |
| CATGAATC | -0.0544 |
| AGGTTCAT | -0.145 |
| CAGGGTAG | -0.139 |

Block 6
Target: RING finger protein unkempt homolog, zinc fingers 1-6, GST-SBP tag (UNK, Homo sapiens, UniProt Q9C0B0, residues 30-357)
UniProt Q9C0B0, sequence (30-357, looked up): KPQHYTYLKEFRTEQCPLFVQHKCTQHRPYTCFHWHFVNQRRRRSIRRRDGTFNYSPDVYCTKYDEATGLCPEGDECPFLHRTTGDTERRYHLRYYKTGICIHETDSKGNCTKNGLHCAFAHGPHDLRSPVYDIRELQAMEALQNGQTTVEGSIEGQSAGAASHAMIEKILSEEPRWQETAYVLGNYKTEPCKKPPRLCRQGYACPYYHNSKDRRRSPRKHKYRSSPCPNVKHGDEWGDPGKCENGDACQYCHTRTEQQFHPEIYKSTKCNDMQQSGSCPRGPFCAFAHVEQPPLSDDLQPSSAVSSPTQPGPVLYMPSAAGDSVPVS
Method: RNA Bind-n-Seq
Form: RNA
Matrix: in vitro
Tested at: not given
Setting: RNA with constant flanks, human-mouse chimeric sites, ends assumed
Baseline: input RNA pool
Reading: higher = stronger binding
Constant ends, left off below: GGGAGUUCUACAGUCCGACGAUC … CAACAGAGGAUUGAGCAUCA
| Strand | bound/input enrichment |
| --- | --- |
| UUGCUACUGACUCCCUGGGUCAAGUUCCUGUGGGAGUCAUACAGGCAGUGUUUGGACCUUCUUCGAAACAAUUCUAGAGUAGAGCGCCUUUACCAUGAUAUCGCCCAACAAGCUUUCAAA | 0.14 ratio |
| GGUGGGGUGGUCAUUGCCGUUUGAGCUGCUGAUUUUCAUGAGUCGCCUUCAAAACUCUCGCAUAGGGUUGACAAUGUGGGGGGGUGGGGGAUCCAGCUUAUUCUUUUUCCCCAGCCCCCA | 2.58 ratio |
| GGACAUCUGUCAAAUUGUUAUGUUCCUGUGAAACAAGUGAACACUCUGAUACACUUCAUUUAGUUGUACAUCUGUAUGAUAGAGAAAUGUAAAUAUGUUAAUCCAAGAUGAAUUCAACUU | 0.308 ratio |
| UCUUAACUUAUUCAUUUAACUUAUUUUUAUAGCUAGAUAAAUAUUGUUAGUCUUAGACAAUAGCUCACAUCUUUACAGAAGCAUGCCCUCCCUGUCCAUUUGUCUUACAAUAACACUCAG | 6.73 ratio |
| UAAAUUAGGGCUGCCGUUUUCUGUUUCUCCCUGGGCUGCGGAAAGCCAGAAGAUUUUAUCUAGCUUAAACCAGGCUGCUGGUGUUCCCUCUUUUUUUCCACGAGGGUGUUUUUGGCUGCA | 0.775 ratio |
| UGUGCAUAUGAUGCUUGGAGAUGGUUUUGCAAAAGCAGACAUCGCUGCAAGGUAAUCACAAUAGAUAAAAGUGGUAUUUUAAACCUUUGAAAUAAAUGGAUGUAACUGUACCUUGGUACA | 0.661 ratio |
| UCCUUGGAACCCAGUCAUAUAGGUGACCUGCAAAAAGCAGACACCAGUAGUCAAGGUGCUUUAGUGUUUCUCUCAAAGGACUACGAAAUAGAAAGUCAAAAUCCCCUGGCCUCUCCUACG | 2.19 ratio |
| UGUGCAUAUGAUGCUUGAGAUGGUUUUUGCAAAAGCAGACAUCGCUGCAAGGUCAUUACAAUAGAUAAAAGUGGUAUUUUAAACCUUUGAAAUAAAUGGAUGUAACUGUACCUUGGUACA | 0.394 ratio |

A few entries again (block 3):
| Change | ABA EC50 [µM] |
| --- | --- |
| E64S | 2.26 |
| H34Q | 4.01 |
| F56Y | 16 |
| L164E | 38.4 |
